{"data": "Results pooled from the literature", "cell line": "MCF7", "note": "Compare with care: the assays were run in different laboratories."}
{"Structure (SMILES)": "COc1ccccc1CNC[C@@](O)(COCc1ccccc1)[C@@H]1CC[C@@H](C)C[C@H]1OCc1ccccc1", "read-out": "cell growth or viability", "method": "MTT", "time": "72 h", "IC50": "1.63 µM"}
{"Structure (SMILES)": "CC(C)(C)OC(=O)N1CCN(CC(OCc2ccc3ccccc3c2)c2ccc(Cl)cc2Cl)CC1 (stereo not drawn)", "read-out": "cell growth or viability", "method": "MTT", "time": "24 h", "IC50": "25.4 µM"}
{"Structure (SMILES)": "O=C1/C(=N\\c2ccc(Cl)cc2Br)c2ccccc2N1C(=O)c1ccccc1", "read-out": "cell growth or viability", "method": "MTT", "time": "48 h", "IC50": "> 100 µM"}
{"Structure (SMILES)": "Cc1ccnc(-c2cc(C(=O)O)ccn2)c1.F[P-](F)(F)(F)(F)F.F[P-](F)(F)(F)(F)F.[Ru+2].c1ccc(-c2ccccn2)nc1.c1ccc(-c2ccccn2)nc1", "read-out": "cell viability", "time": "48 h", "setting": "light irradiation 2.5 min", "IC50": "> 100 µM"}
{"Structure (SMILES)": "COc1cc(-c2cc(=O)c3ccc(OCCCn4c(Cl)nc5ccccc54)cc3o2)cc(OC)c1OC", "read-out": "cell growth or viability", "method": "MTT", "time": "48 h", "IC50": "166 µM"}
{"Structure (SMILES)": "O=C(c1ccc(Br)cc1)N1CCN(CC(OCc2ccc3ccccc3c2)c2ccc(Cl)cc2Cl)CC1 (stereo not drawn)", "read-out": "cell growth or viability", "method": "MTT", "time": "24 h", "IC50": "> 50 µM"}
{"Structure (SMILES)": "Cc1nc(Nc2ccc3c(c2)/C(=C/c2ccccc2)C(=O)N3)c2ccccc2n1", "read-out": "cell growth or viability", "method": "MTT", "IC50": "31.3 µM"}
{"Structure (SMILES)": "O=C1CS/C(=N\\N=C\\c2cccc3cc4ccccc4nc23)N1c1ccc(F)cc1", "read-out": "cell growth or viability", "method": "MTT", "time": "48 h", "IC50": "> 50 µM"}
{"Structure (SMILES)": "O=C1Nc2ccccc2C12NC(c1ccc(F)cc1)C1(C(=O)Nc3ccccc31)N2Cc1ccc(F)cc1 (stereo not drawn)", "read-out": "cell growth or viability", "method": "MTT", "time": "48 h", "IC50": "32.1 µM"}
{"Structure (SMILES)": "CN1CCC(N[C@@H]2CCc3[nH]c4c(C(N)=O)ccc(-c5ccccc5Cl)c4c3C2)CC1", "read-out": "cell proliferation", "time": "96 h", "IC50": "0.0183 µM"}
{"Structure (SMILES)": "Cc1nc(N(C)c2ccc3c(c2)/C(=C/c2cn(C)c4ccccc24)C(=O)N3C)c2ccccc2n1", "read-out": "cell growth or viability", "method": "MTT", "IC50": "1 µM"}
{"Structure (SMILES)": "Clc1ccc(C(Cn2cncn2)OCc2ccc3ccccc3c2)c(Cl)c1 (stereo not drawn)", "read-out": "cell growth or viability", "method": "MTT", "time": "24 h", "IC50": "42 µM"}
{"Structure (SMILES)": "Cc1ccc2c(Cl)cc(Cl)c([O-])c2n1.Cc1ccc2c(Cl)cc(Cl)c([O-])c2n1.[Co+2].c1ccc2nc3c4cccnc4c4ncccc4c3nc2c1", "read-out": "cell growth or viability", "method": "MTT", "time": "48 h", "IC50": "0.94 µM"}
{"Structure (SMILES)": "C[C@@H]1CC[C@@H]([C@@](O)(CNCc2ccc(F)cc2)COCc2ccccc2)[C@H](OCc2ccccc2)C1", "read-out": "cell growth or viability", "method": "MTT", "time": "72 h", "IC50": "2.56 µM"}
{"Structure (SMILES)": "Cc1c(COc2cc(OCc3cccc(C#N)c3)c(CNC(CO)(CO)CO)cc2Cl)cccc1-c1cccc(OCCCCCCC(=O)NO)c1", "read-out": "cell growth or viability", "method": "CCK-8", "time": "48 h", "IC50": "> 20 µM"}
{"Structure (SMILES)": "NC(NN=Cc1ccc([N+](=O)[O-])o1)=[S+][Au-][Cl]", "read-out": "cell growth or viability", "method": "resazurin", "IC50": "44.6 µM"}
{"Structure (SMILES)": "Cc1c(COc2cc(OCc3cccc(C#N)c3)c(CNC(C)(CO)CO)cc2Cl)cccc1-c1cccc(OCCCCCCC(=O)NO)c1", "read-out": "cell growth or viability", "method": "CCK-8", "time": "48 h", "IC50": "> 20 µM"}
{"Structure (SMILES)": "CCC(=CCc1c(O)cc2c(c1O)C(=O)CC(c1ccccc1O)O2)CC (stereo not drawn)", "read-out": "cell growth or viability", "method": "MTT", "time": "48 h", "IC50": "70.5 µM"}
{"Structure (SMILES)": "Nc1ncc(-c2nc(N3CCOCC3)nc(N3CCN(C(=O)CCC(=O)NCCCCCCCCCCCNc4cccc5c4C(=O)N(C4CCC(=O)NC4=O)C5=O)CC3)n2)c(C(F)F)n1 (stereo not drawn)", "mode": "inhibitor", "method": "In-Cell Western", "measured": "Akt pSer473", "time": "2 h", "IC50": "0.0402 µM"}
{"Structure (SMILES)": "C[C@@H]1CC[C@@H]([C@](O)(COCc2ccccc2)Cn2cnc3ccccc32)[C@H](OCc2ccccc2)C1", "read-out": "cell growth or viability", "method": "MTT", "time": "72 h", "IC50": "5.68 µM"}
{"Structure (SMILES)": "Cc1ccc2c(Br)cc(Br)c([O-])c2n1.Cc1ccc2c(Br)cc(Br)c([O-])c2n1.[Co+2].c1ccc(-c2ccccn2)nc1", "read-out": "cell growth or viability", "method": "MTT", "time": "48 h", "IC50": "12 µM"}
{"Structure (SMILES)": "Cc1c(COc2cc(OCc3cccc(C#N)c3)c(CNC(CO)CO)cc2Cl)cccc1-c1cccc(OCCCCCCC(=O)NO)c1", "read-out": "cell growth or viability", "method": "CCK-8", "time": "48 h", "IC50": "17.9 µM"}
{"Structure (SMILES)": "COc1ccc(C2CC(=O)c3c(cc(O)c(CC=C(C)C)c3O)O2)cc1 (stereo not drawn)", "read-out": "cytotoxicity", "method": "MTT", "time": "48 h", "setting": "as reported", "IC50": "> 100 µM"}
{"Structure (SMILES)": "O=C(c1ccncc1)N1CCN(CC(OCc2ccc3ccccc3c2)c2ccc(Cl)cc2Cl)CC1 (stereo not drawn)", "read-out": "cell growth or viability", "method": "MTT", "time": "24 h", "IC50": "40 µM"}
{"Structure (SMILES)": "COc1ccccc1/C=C1\\C(=O)N(C)c2ccc(N(C)c3nc(C)nc4ccccc34)cc21", "read-out": "cell growth or viability", "method": "MTT", "IC50": "1.02 µM"}
{"Structure (SMILES)": "COC(=O)N1c2ccc3c(nc(Cc4ccccc4)n3[C@@H]3CCC[C@@H](C(=O)O)C3)c2CC[C@@H]1C", "read-out": "cell growth or viability", "method": "ATP luminescence", "time": "10 days", "IC50": "1.91 µM"}
{"Structure (SMILES)": "CCOC(=O)/C=C1\\S/C(=N\\N=C\\c2cccc3cc4ccccc4nc23)N(c2ccccc2)C1=O", "read-out": "cell growth or viability", "method": "MTT", "time": "48 h", "IC50": "> 50 µM"}
{"Structure (SMILES)": "Cc1ccnc(-c2cc(C)ccn2)c1.[Co+2].[O-]c1c(I)cc(I)c2cccnc12.[O-]c1c(I)cc(I)c2cccnc12", "read-out": "cell growth or viability", "method": "MTT", "time": "48 h", "IC50": "33 µM"}
{"Structure (SMILES)": "Nc1cc2cccnc2c2ncccc12.[Cl-].[Cl-].[Ru+2].c1cnc2c(c1)ccc1cccnc12.c1cnc2c(c1)ccc1cccnc12", "read-out": "cell growth or viability", "method": "MTT", "setting": "dark", "IC50": "> 500 µM"}
{"Structure (SMILES)": "CCNC(=S)NN=Cc1ccc([N+](=O)[O-])o1", "read-out": "cell growth or viability", "method": "resazurin", "IC50": "39.1 µM"}
{"Structure (SMILES)": "CCN(CC)c1ccc(C=O)c(OS(=O)(=O)Oc2ccc3c(c2)CC[C@@H]2[C@@H]3CC[C@]3(C)C(=O)CC[C@@H]23)c1", "time": "72 h", "IC50": "14.9 µM"}
{"Structure (SMILES)": "CC(=O)[O][Pd][c]1cc(C)ccc1N1N=C(C)C(C)(C)C1=O.CC(=O)[O][Pd][c]1cc(C)ccc1N1N=C(C)C(C)(C)C1=O", "read-out": "cell growth or viability", "method": "MTT", "IC50": "30.6 µM"}
{"Structure (SMILES)": "Cc1c(C)c2cccnc2c2ncccc12", "read-out": "cell growth or viability", "method": "MTT", "time": "48 h", "IC50": "> 50 µM"}
{"Structure (SMILES)": "Cc1ccc(C(=O)N2CCN(CC(OCc3ccc4ccccc4c3)c3ccc(Cl)cc3Cl)CC2)cc1 (stereo not drawn)", "read-out": "cell growth or viability", "method": "MTT", "time": "24 h", "IC50": "38.4 µM"}
{"Structure (SMILES)": "Cc1ccc([N+](=O)[O-])cc1S(=O)(=O)N(C)/N=C/c1cnc2ccc(Br)cn12", "read-out": "cell growth or viability", "IC50": "0.238 µM"}
{"Structure (SMILES)": "CCc1ccc(/N=C2\\C(=O)N(Cc3ccc([N+](=O)[O-])cc3)c3ccccc32)cc1", "read-out": "cell growth or viability", "method": "MTT", "time": "48 h", "IC50": "8.58 µM"}
{"Structure (SMILES)": "CC(C)c1ccc(N(C)c2ccc3c(c2)OCC[C@H]3CNc2cnccc2C(=O)O)cc1", "read-out": "cell growth or viability", "method": "ATP luminescence", "time": "7 days", "IC50": "0.435 µM"}
{"Structure (SMILES)": "CCCN1C(=O)/C(=C/C(=O)OCC)S/C1=N\\N=C\\c1cccc2cc3ccccc3nc12", "read-out": "cell growth or viability", "method": "MTT", "time": "48 h", "IC50": "> 50 µM"}
{"Structure (SMILES)": "NC(=O)c1ccc(-c2ccccc2Cl)c2c3c([nH]c12)CC[C@H](N)C3", "read-out": "cell proliferation", "time": "96 h", "IC50": "0.0288 µM"}
{"Structure (SMILES)": "Nc1ncc(-c2nc(N3CCOCC3)nc(N3CCN(C(=O)CCC(=O)NCCOCCOCCOCC(=O)Nc4cccc5c4C(=O)N(C4CCC(=O)NC4=O)C5=O)CC3)n2)c(C(F)F)n1 (stereo not drawn)", "mode": "inhibitor", "method": "In-Cell Western", "measured": "Akt pSer473", "time": "2 h", "IC50": "0.41 µM"}
{"Structure (SMILES)": "Clc1ccc(C(Cn2cncn2)OCc2ccc(Br)cc2)c(Cl)c1 (stereo not drawn)", "read-out": "cell growth or viability", "method": "MTT", "time": "24 h", "IC50": "39.4 µM"}
{"Structure (SMILES)": "Nc1ncc(-c2nc(N3CCOCC3)nc(N3CCN(C(=O)CCC(=O)NCCCCCCCCNc4cccc5c4C(=O)N(C4CCC(=O)NC4=O)C5=O)CC3)n2)c(C(F)F)n1 (stereo not drawn)", "mode": "inhibitor", "method": "In-Cell Western", "measured": "Akt pSer473", "time": "2 h", "IC50": "0.0323 µM"}
{"Structure (SMILES)": "CN(C)C(=S)NN=C(c1ccccn1)c1ccccn1", "read-out": "cell growth or viability", "method": "MTT", "time": "48 h", "IC50": "0.58 µM"}
{"Structure (SMILES)": "C=CCc1c(O)cc2c(c1O)C(=O)CC(c1ccc(O)cc1)O2 (stereo not drawn)", "read-out": "cytotoxicity", "method": "MTT", "time": "48 h", "setting": "sigmoidal fit", "IC50": "114 µM"}
{"Structure (SMILES)": "O=C1/C(=N\\c2ccc(Cl)cc2Br)c2ccccc2N1C(=O)c1ccccc1Br", "read-out": "cell growth or viability", "method": "MTT", "time": "48 h", "IC50": "23.1 µM"}
{"Structure (SMILES)": "CC(C)CN1C(=O)CS/C1=N\\N=C\\c1cccc2cc3ccccc3nc12", "read-out": "cell growth or viability", "method": "MTT", "time": "48 h", "IC50": "> 50 µM"}
{"Structure (SMILES)": "Cc1ccc2c(Cl)cc(Cl)c([O-])c2n1.Cc1ccc2c(Cl)cc(Cl)c([O-])c2n1.Clc1ccnc2c1ccc1c(Cl)ccnc12.[Co+2]", "read-out": "cell growth or viability", "method": "MTT", "time": "48 h", "IC50": "6.18 µM"}
{"Structure (SMILES)": "Nc1ncc(-c2nc(N3CCOCC3)nc(N3CCOCC3)n2)c(C(F)F)n1", "mode": "inhibitor", "method": "In-Cell Western", "measured": "Akt pSer473", "time": "2 h", "IC50": "0.0309 µM"}
